Experimental data gathered from unrelated publications.
Parts stem from different laboratories: compare values within a part only.

Block 1
Target: Sal-like protein 4, full length isoform B (SALL4, Homo sapiens, UniProt Q9UJQ4-2, residues 1-616)
Technique: universal PBM
Molecule type: double-stranded DNA, one strand shown
Matrix: in vitro
Tested at: not given
Setting: 8-mer, flanks averaged, mean of replicates
Direction: higher = stronger binding
The E-score of `CCCCGAAG` is reported as -0.14.
`ACGGGCGG` has an E-score of -0.321.
With `CTGTAGGC` the E-score was -0.0476.
The E-score of `ATCCTTGC` is reported as -0.0289.
For `ATGATGAC`, the E-score was 0.0639.
The E-score of `ATGCGAAG` is reported as 0.19.
`CGTACGCC` has an E-score of -0.138.
`CAATCTGC` gave an E-score of -0.0612.
For `ACCTCTTG`, the E-score was -0.19.
`AAAGATAG` gave an E-score of 0.142.
For `CCGTTCGC`, the E-score was -0.153.
The E-score of `CCTCGGCA` is reported as -0.172.
`ACCATCCG` gave an E-score of -0.169.
`TGATTGCA` gave an E-score of 0.138.
`GCCGGTTA` has an E-score of -0.126.
With `ACCTTATG` the E-score was 0.242.
With `CATAACGA` the E-score was 0.189.
For `AACTGGGT`, the E-score was -0.179.
With `ATGCCGTG` the E-score was -0.129.
With `GCCCGGCA` the E-score was -0.355.
With `CTAAATAC` the E-score was 0.218.
With `GCCAAGCC` the E-score was -0.241.
The E-score of `GACACGAC` is reported as 0.0405.
`AACTCTAT` has an E-score of 0.11.
`AACAGAAA` gave an E-score of 0.228.

Block 2
Target: RNA binding protein fox-1 homolog 2, RRM domain, GST-SBP tag (RBFOX2, Homo sapiens, UniProt O43251-10, residues 100-194)
Technique: RNA Bind-n-Seq
Molecule type: RNA
Matrix: in vitro
Tested at: 365 nM
Setting: natural RNA segment, single round, ends assumed
Relative to: no-protein control
Direction: higher = stronger binding
Shared flanks, not repeated: GGGAGUUCUACAGUCCGACGAUC … UGGAAUUCUCGGGUGCCAA
Target sequence (chain): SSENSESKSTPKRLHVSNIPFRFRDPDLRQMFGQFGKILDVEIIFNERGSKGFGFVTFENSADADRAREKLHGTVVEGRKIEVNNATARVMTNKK
Under “RBNS enrichment (R)”, `AACUCUUUCUAGCCCUUUUAGAUUUUGGCACUGUGAAACCCCUGCUGGAAACCUGAGUGACCCUCCCUCCCCACCAAGAGUCCACAGACCUUUCAUCUUUCACGAACUUG` is recorded as 0.614.
`CACACUGAACUGAAGGGGACUUGCGCGGAUGUGGGAGAUGCAAGCCUUCGCUUUAUUUUUUUAUAACUAUCAACUGCCAUCAUGUUUUGUAAUUUGGGGAUCUUGAUUUC`: “RBNS enrichment (R)” 0.724.
For `UGAGCCCGCUGGCCUCACUGGGGUGUCAGGGCUGGGCCCAGGGAUUGCUAUUUUCACGUAGGCCCUUGUCCUUGGAUACCCAGGGGAGGGAGCCACUGUCGCCGCAGCAC`, “RBNS enrichment (R)” read 0.342.
`UGCCCUGUGCCUGGCAGGGAGCGCUUGCAGAGGUGUCCUAGCCUUAGAGGGCUACUUCAGUGUCUCUACUGACAGAAACUCCUGUAUCUCAAAUGGAUCUCGAAGUUCUC` — result for “RBNS enrichment (R)”: 0.252.
For `UCUUCCAGGCCAAAGUAUGUUGCUGCUUCCUGUCUCCACUGGUCCCCACCUACCCUGGCACUUGCCCUGUGACAUGAUGGGUGAGGCUGUGGGGGAACUCAGUGGCAGGA`, “RBNS enrichment (R)” read 0.464.
Under “RBNS enrichment (R)”, `AUAGAGGUUCCAGUUUACAAACUCAAGUGAACAGUAAUCUUUGGAAGCUGCCAGUCUAAAUUCUAAAUAGUGUAUCUGAAAUCUCAGUUCCCAAAAUAGUUGUCAGGUUU` is recorded as 0.303.
Under “RBNS enrichment (R)”, `GAGACAGUGUAGACAGCAGCUCUGCUCUGUAUUCUUUUUGACAAAACCAGAACAGUAGAAGUAGCCAAUCGUAAGACCUGAAGACAUUUUGAAUGUCCCACUGGACUAAC` is recorded as 0.271.
For `CCUCCAGCUGGGUGUGGGGGGGCGGAGCAAGGCGGGGGACAGACGCAGCACCUUCUUAGCGAUCUAGGCCUGGCAAGAGCUCUGGCCCCAAGGCCUCCUCUUCCCAGGGG`, “RBNS enrichment (R)” read 2.43.

Block 3
Organism: Saccharomyces cerevisiae
Read-out: peptide binding
Technique: yeast competitive growth sequencing
Molecule type: peptide
Strain: cyclin-Cln2 fusion strain
Tested at: concentration not given
Setting: Cln2 background subtracted
Direction: direction not given
For `KRCATPVIIDEILPSK`, the binding score was 0.336.
`MDASRQLMLNEEQ` has a binding score of 0.103.
For `GPVKLEFDVSDGAT`, the binding score was -0.0241.
`TSSAQRRLEIPSGGAD` has a binding score of 1.02.
For `REPARRLFLFGEE`, the binding score was 0.189.
With `KLLPRKLQFFCDP` the binding score was 0.852.
For `ARKRLELGNLGNPQ`, the binding score was -0.722.
With `EPKTLFLGAGDFQF` the binding score was 0.675.
`ALLRRLQDVANDRGSH` gave a binding score of 0.945.
`PKNAKRNLSSEFAN` gave a binding score of 0.835.

Block 4
Target: Prothrombin, mature alpha-thrombin (F2, Homo sapiens, UniProt P00734)
Technique: aptamer microarray, sandwich
Molecule type: DNA with 2'F-ANA
Matrix: in vitro
Tested at: 200 nM
Setting: whole 15-mer aptamer, many near background
With: Cy3 exosite-II aptamer, 400 nM
Direction: higher = stronger binding
Oligonucleotide: GGTTGGTGTGGTTGG
For `2'F-ANA at 1 3 4 5 7 12 14`, “mean fluorescence intensity” read 261 a.u.
`2'F-ANA at 1 2 5 7 8 12`: “mean fluorescence intensity” 122 a.u.
`2'F-ANA at 3 6 8 9 10 13`: “mean fluorescence intensity” 413 a.u.
`2'F-ANA at 2 3 4 7 11 13`: “mean fluorescence intensity” 504 a.u.
`2'F-ANA at 1 2 3 9 11 12 13 15`: “mean fluorescence intensity” 331 a.u.
`2'F-ANA at 1 2 4 6 7 10 11 12`: “mean fluorescence intensity” 61.7 a.u.
`2'F-ANA at 1 7 8 9 11 12`: “mean fluorescence intensity” 392 a.u.
For `2'F-ANA at 1 3 5 6 8 10 13 14`, “mean fluorescence intensity” read 46 a.u.
`2'F-ANA at 1 2 3 4 5 8`: “mean fluorescence intensity” 134 a.u.
Under “mean fluorescence intensity”, `2'F-ANA at 1 3 4 7 8 9 11 12 13` is recorded as 255 a.u.
`2'F-ANA at 1 5 11 12 13 14 15`: “mean fluorescence intensity” 46 a.u.
`2'F-ANA at 4 5 6 8 10 11 13`: “mean fluorescence intensity” 48.5 a.u.
For `2'F-ANA at 8 12 14 15`, “mean fluorescence intensity” read 259 a.u.
For `2'F-ANA at 5 7 9 10 12 15`, “mean fluorescence intensity” read 52.1 a.u.
For `2'F-ANA at 6 8 9 10 12 14 15`, “mean fluorescence intensity” read 101 a.u.
Under “mean fluorescence intensity”, `2'F-ANA at 1 2 3 6 7 9 10 12` is recorded as 92.2 a.u.
Under “mean fluorescence intensity”, `2'F-ANA at 1 2 3 15` is recorded as 264 a.u.
Under “mean fluorescence intensity”, `2'F-ANA at 1 4 6 8 9 11` is recorded as 108 a.u.
`2'F-ANA at 1 2 3 6 7 9 10 11 13 14 15`: “mean fluorescence intensity” 82.5 a.u.
Under “mean fluorescence intensity”, `2'F-ANA at 1 2 6 7 9 10 12 14 15` is recorded as 152 a.u.
`2'F-ANA at 2 4 6 9 10 11 12 13` — result for “mean fluorescence intensity”: 88.7 a.u.

Further values, each from its own experiment
Technique: cross-linking MS
`CLTB (Homo sapiens, UniProt P09497)`: cross-linked residues “E148 to E1503” (CLTC (Homo sapiens, UniProt Q00610); cell fractions; with: DHSO).
`HNRNPR (Homo sapiens, UniProt O43390)` — result for interaction screen: “cross-linked” (HNRNPA1 (Homo sapiens, UniProt P09651); hits only).
Under cross-linked residues, `SNRPD3 (Homo sapiens, UniProt P62318)` is recorded as “E59 to E345” (SF3B2 (Homo sapiens, UniProt Q13435); cell fractions; with: DHSO).
For `POLR3A (Homo sapiens, UniProt O14802)`, interaction screen read “cross-linked” (POLR3B (Homo sapiens, UniProt Q9NW08); hits only).

A few entries again (block 3):
`MDASRQLMLNEEQ` has a binding score of 0.103.
For `GPVKLEFDVSDGAT`, the binding score was -0.0241.
`TSSAQRRLEIPSGGAD` has a binding score of 1.02.
For `REPARRLFLFGEE`, the binding score was 0.189.
With `KLLPRKLQFFCDP` the binding score was 0.852.
For `ARKRLELGNLGNPQ`, the binding score was -0.722.
With `EPKTLFLGAGDFQF` the binding score was 0.675.
`ALLRRLQDVANDRGSH` gave a binding score of 0.945.
